# Experimental data pooled from the literature.
# Protocols differ between the studies behind these lines. Numbers after ± are the reported error.
SMILES,organism,test,system,setting,scale,endpoint,result
C[OH+][Cu-2]12[O]C(c3cn(-c4ccccc4)nc3-c3ccc(C)cc3)=N[N+]1=C(C)c1c(cc(C)oc1=O)[O]2 (centres unmarked),Plasmodium falciparum,,3D7,"12.5 µg/mL, 72 h",,parasitaemia suppression,100%
CC(=O)[O-].O.O.O.O.[Ni+2].[O-]c1ccc(Br)cc1C=NCCN1CCOCC1,Candida albicans,,,20 µL of 100 µM per disc,,inhibition zone diameter,25 mm
O=c1[nH]cc(C(c2cccc(F)c2)c2c[nH]c(=O)[nH]c2=O)c(=O)[nH]1,HIV-1 subtype C,refers to: p24,,concentration not given,,antiviral activity,inactive
CC(C)C[C@@H]1NC(=O)[C@H](C)NC(=O)CCNC(=O)[C@@H](Cc2ccccc2)NC1=O,Lolium multiflorum,"herbicidal activity, germination in agar",,"67 µg/mL, 12 days",,leaf development inhibition,23%
CC1COCCN1c1nc(NCc2cccnc2C(F)(F)F)c2cccnc2n1 (centres unmarked),Brugia malayi,"Wolbachia load, wsp/gst qPCR",microfilariae,6 d,,EC50,150 nM
CC[C@@H](C)[C@@H](NC(=O)[C@@H](C)NC(=O)[C@@H](CCCCN)NC(=O)[C@@H](CC(C)C)NC(=O)[C@@H](C)NC(=O)[C@H](NC(=O)[C@@H](CCCCN)NC(=O)[C@@H](CC(C)C)NC(=O)[C@H](NC(=O)[C@@H](CCCCN)NC(=O)[C@@H](CCCCN)NC(=O)[C@@H](CCCCN)NC(=O)[C@@H](C)NC(=O)[C@@H](CCCCN)NC(=O)[C@@H](CO)NC(=O)[C@@H](Cc1ccccc1)NC(=O)[C@H](NC(=O)[C@@H](CCCCN)NC(=O)[C@@H](CC(C)C)NC(=O)[C@@H](Cc1ccccc1)NC(=O)[C@@H](CO)NC(=O)[C@@H](CCCCN)NC(=O)[C@@H](Cc1c[nH]c2ccccc12)NC(=O)[C@@H](CCCCN)NC(C)=O)[C@H](C)O)C(C)C)[C@H](C)O)C(=O)N[C@H](CO)C(=O)N[C@H](CCCCN)C(N)=O,Acinetobacter baumannii,,11 isolates,"24 h, 37 °C",,MIC geometric mean,0.6 µM
Oc1c(Br)cc(Br)c2nc3c(C(F)(F)F)cc(C(F)(F)F)cc3nc12,Staphylococcus aureus,Calgary Biofilm Device,MRSA 1707,biofilm,,MBC,1.56 µM
CNc1cc(C(=O)Nc2ccc(Cl)cc2)ccc1OC,duck hepatitis B virus,"viral replication, qPCR",DHBV-infected Pekin ducklings,"oral, 50 mg/kg, day 14",,serum DHBV DNA,inhibited
CC1=CC[C@@H]2[C@H](C1)C2(C)C,Mythimna separata,"olfactory preference, Y-tube olfactometer",,females,reference: liquid paraffin control,choice of control,60%
O=c1[nH]cc(C(c2ccc(Cl)cc2)c2c[nH]c(=O)[nH]c2=O)c(=O)[nH]1,HIV-1 subtype C,"viral replication, refers to: p24",,,,IC50,120 µg/mL
CCOC(=O)C1=C(C)NC2=C(C(=O)CC(C)(C)C2)C1c1ccc(OCC(=O)NN=Cc2cc(Br)c(O)c(Br)c2)cc1OCC(=O)NN=Cc1cc(Br)c(O)c(Br)c1 (centres unmarked),Listeria monocytogenes,,NCTC 5348,"concentration not given, 24 h, 37 °C",,inhibition zone diameter,11.6 ± 0.6 mm
Nc1ncnc2c1c(Cl)cn2[C@@H]1O[C@H](CO)C[C@H]1O,Trypanosoma vivax,"parasite growth, resazurin",,24 h,,EC50,96 nM
CC(C)C(C(=O)Nc1ccc(C(=O)NO)cc1)c1ccccc1 (centres unmarked),Lucilia cuprina,larval weight gain,"LS strain, larvae on impregnated cotton wool",24 h,,IC50,34 µg
Oc1c(Br)ccc2cccnc12,Aeromonas hydrophila,"microbial growth, agar dilution",,,,MIC,35.7 µM
CC1(CCCCCCCCCCCCOCCCOP(=O)(O)CO[C@H](CO)Cn2ccc(N)nc2=O)COC1,Betapolyomavirus hominis,qPCR,Gardner,,reference: CC50 over EC50,selectivity index,67
Nc1ncnc2c1c(C(F)(F)F)cn2[C@@H]1O[C@H](CO)[C@@H](O)[C@H]1O,Trypanosoma vivax,"parasite growth, resazurin",,24 h,,EC50,820 nM
CN1C[C@H](c2cccc(C(F)(F)F)c2)[C@@H](C(=O)Nc2ccccc2F)C1=O,Arabidopsis thaliana,,seedlings,"5 µM, 24 h",,dihydroorotate level,22 ± 4.54 ng/g fresh weight
COc1ccc(-c2nc(-c3ccccc3OC)[nH]c2-c2ccc(OC)cc2)cc1,Schistosoma mansoni,,adult male worms,5 µM,,worm killing,0%
C=C(C)[C@@H]1CC[C@]2(CCNCCCN3CCCC3)CC[C@]3(C)[C@H](CC[C@@H]4[C@@]5(C)CC[C@H](OC(=O)CC(C)(C)C(=O)O)C(C)(C)[C@@H]5CC[C@]43C)[C@@H]12,human immunodeficiency virus 1,western blot,"HEK293T transfected, subtype B NL4-3, virion lysates",100 nM,reference: total CA,CA-SP1 accumulation,25 to 30%
CN(C)c1ccc(C(=O)NCCCCCCC(=O)NO)cc1,Lucilia cuprina,pupation,"LS strain, larvae on impregnated cotton wool",216 h,,IC50,890 µg
N#Cc1ccc2cccc(O)c2n1,Aeromonas hydrophila,"microbial growth, agar dilution",,,,MIC,1500 µM
COC1C=COC2(C)Oc3c(C)c(O)c4c(c3C2=O)C2=NC3(CCN(CC(C)C)CC3)NC2=C(NC(=O)C(C)=CC=CC(C)C(O)C(C)C(O)C(C)C(OC(=O)Nc2cnccn2)C1C)C4=O (centres unmarked),Mycobacteroides abscessus,intracellular bacterial growth,"THP-1 derived macrophages, ATCC 19977",,,IC50,30 nM
CN(C)c1ccc(C(=O)N[C@@H](CSCCCC(=O)NO)C(=O)NC2CCCc3ccccc32)cc1 (some centres unmarked),Lucilia cuprina,larval weight gain,"LS strain, larvae on impregnated cotton wool",24 h,,IC50,254 µg
O=[N+]([O-])c1ccc(CSc2nnc(C34CC5CC(CC(C5)C3)C4)n2-c2ccccc2)cc1,Candida albicans,"microbial growth, disc diffusion",IFO0583,"200 µg/disc, 48 h",,inhibition zone,12 mm
O=c1[nH]cc(C(c2ccccc2F)c2c[nH]c(=O)[nH]c2=O)c(=O)[nH]1,HIV-1 subtype C,refers to: p24,,concentration not given,,antiviral activity,inactive
COc1ccc(-n2c(=O)c(C(=O)C3C(=O)CCCC3=O)nc3ccccc32)cc1,Monochoria vaginalis,"herbicidal activity, paddy pot test, visual rating",,28 days,,ED90,6.3 g a.i./10 a
O=c1[nH]cc(C(c2ccc(F)cc2)c2c[nH]c(=O)[nH]c2=O)c(=O)[nH]1,HIV-1 subtype C,refers to: p24,,concentration not given,,antiviral activity,inactive
O=c1c2ccccc2sn1-c1cc(Br)cc(Br)c1,Candida albicans,"growth, broth dilution",ATCC MYA-1237 (resistant),MIC-0,,MIC,3.13 µg/mL
COc1ccc(Cn2ccc3ccc(C(=O)NO)cc32)cc1,Lucilia cuprina,pupation,"LS strain, larvae on impregnated cotton wool",216 h,,IC50,> 1000 µg
CC(C)C[C@@H]1NC(=O)[C@H](C)N(C)C(=O)CCNC(=O)[C@@H](Cc2ccccc2)NC1=O,Lolium multiflorum,"herbicidal activity, germination in agar",,"67 µg/mL, 12 days",,leaf development inhibition,23%
O=C(CCCCCCC(=O)NO)NO,Lucilia cuprina,larval weight gain,"LS strain, larvae on impregnated cotton wool",24 h,,IC50,356 µg
CC1(CCCCCCCCCCOCCCOP(=O)(O)CO[C@H](CO)Cn2ccc(N)nc2=O)COC1,Betapolyomavirus hominis,qPCR,Gardner,,reference: CC50 over EC50,selectivity index,> 59
CC(=O)SCC(=O)c1ccc(NS(=O)(=O)c2ccc(OCCCN(C)C)cc2)nc1,Lucilia cuprina,pupation,"LS strain, larvae on impregnated cotton wool",216 h,,IC50,75.3 µg
CC[C@H](C)[C@@H]1NC(=O)[C@H](CCCNC(=N)N)NC(=O)[C@H](C)NC(=O)[C@H](NC(=O)[C@H](CO)NC(=O)[C@@H](NC(=O)[C@H](NC(=O)[C@@H](CCC(N)=O)NC(=O)[C@H](CO)NC(=O)[C@@H](NC(=O)[C@@H](Cc2ccccc2)NC)[C@@H](C)CC)[C@@H](C)CC)[C@@H](C)CC)[C@H](C)NC1=O,"Staphylococcus aureus, Staphylococcus epidermidis, Bacillus subtilis",,,together with: 0.002% polysorbate 80,reference: without polysorbate,MIC fold decrease,16 to 128 fold
COC1C=COC2(C)Oc3c(C)c(O)c4c(c3C2=O)C2=NC3(CCN(CC(C)C)CC3)NC2=C(NC(=O)C(C)=CC=CC(C)C(O)C(C)C(O)C(C)C(OC(=O)c2cccnc2)C1C)C4=O (centres unmarked),Mycobacteroides abscessus,,"ATCC 19977, non-replicating, caseum surrogate",120 h,,MBC90,2 µM
CCN(CC)c1ccc2nc3c4ccccc4/c(=N/c4ccncc4)cc-3oc2c1,Plasmodium falciparum,,NF54,"62.5 ng/mL, 6 h, rings, trophozoites, schizonts",reference: untreated,remaining growth,< 3%
C#Cc1cn([C@@H]2O[C@H](CO)C[C@H]2O)c2ncnc(N)c12,Trypanosoma vivax,"parasite growth, resazurin",,24 h,,EC50,159 nM
C=C(C)[C@@H]1CC[C@]2(CCCNCCN3CCN(Cc4ccccc4)CC3)CC[C@]3(C)[C@H](CC[C@@H]4[C@@]5(C)CC[C@H](OC(=O)CC(C)(C)C(=O)O)C(C)(C)[C@@H]5CC[C@]43C)[C@@H]12,human immunodeficiency virus 1,western blot,"HEK293T transfected, subtype B NL4-3, virion lysates",100 nM,reference: total CA,CA-SP1 accumulation,< 1%
O=C(/C=C/c1ccccc1)N[C@@H](CCCCCC(=O)NO)C(=O)Nc1cccc2cccnc12,Lucilia cuprina,larval weight gain,"LS strain, larvae on impregnated cotton wool",24 h,,IC50,13.9 µg
CC1(CCCCCCCCCCCCCCOCCCOP(=O)(O)CO[C@H](CO)Cn2ccc(N)nc2=O)COC1,Betapolyomavirus hominis,qPCR,Gardner,,reference: CC50 over EC50,selectivity index,1220
O=[N+]([O-])c1c(Br)c(Cl)c2cccnc2c1O,bacteria,,,"panel of 19 strains, 5 species",,MIC50,4 µg/mL
Fc1ccc2c(c1)c1nc3ccc(Br)cc3c-1cn2Cc1cn(-c2ccccc2I)nn1,Giardia duodenalis,"UHPLC-Q-TOF-MS, refers to: Phytosphingosine",trophozoites,"IC50, m/z 318.3, retention 6.6 min",reference: 0.25% DMSO,fold change,10
Brc1ccc(-c2c[nH]c(-c3ccccn3)n2)cc1,Schistosoma mansoni,worm killing,male worms,,,EC50,32000 nM
CC(=NNC(=N)N)c1nnn(-c2ccc(C#CC3(O)CCCCC3)cc2)c1C,Candida albicans,crystal violet,ATCC 10231,MIC,,biofilm inhibition,75.29 ± 0.53%
C=C(C)[C@@H]1CC[C@]2(CNCCCN3CCCC3)CC[C@]3(C)[C@H](CC[C@@H]4[C@@]5(C)CC[C@H](OC(=O)CC(C)(C)C(=O)O)C(C)(C)[C@@H]5CC[C@]43C)[C@@H]12,human immunodeficiency virus 1,western blot,"HEK293T transfected, subtype B NL4-3, virion lysates",100 nM,reference: total CA,CA-SP1 accumulation,70 to 75%
Cc1cc(Cl)ccc1OCCCC(=O)NO,Lucilia cuprina,pupation,"LS strain, larvae on impregnated cotton wool",216 h,,IC50,> 1000 µg
Nc1ncnc2c1c(Br)cn2[C@@H]1O[C@H](CO)C[C@H]1O,Trypanosoma vivax,"parasite growth, resazurin",,24 h,,EC50,18 nM

# Some of these lines once more:
SMILES,organism,test,system,setting,scale,endpoint,result
CC1(CCCCCCCCCCCCCCOCCCOP(=O)(O)CO[C@H](CO)Cn2ccc(N)nc2=O)COC1,Betapolyomavirus hominis,qPCR,Gardner,,reference: CC50 over EC50,selectivity index,1220
O=[N+]([O-])c1c(Br)c(Cl)c2cccnc2c1O,bacteria,,,"panel of 19 strains, 5 species",,MIC50,4 µg/mL
Fc1ccc2c(c1)c1nc3ccc(Br)cc3c-1cn2Cc1cn(-c2ccccc2I)nn1,Giardia duodenalis,"UHPLC-Q-TOF-MS, refers to: Phytosphingosine",trophozoites,"IC50, m/z 318.3, retention 6.6 min",reference: 0.25% DMSO,fold change,10
Brc1ccc(-c2c[nH]c(-c3ccccn3)n2)cc1,Schistosoma mansoni,worm killing,male worms,,,EC50,32000 nM
CC(=NNC(=N)N)c1nnn(-c2ccc(C#CC3(O)CCCCC3)cc2)c1C,Candida albicans,crystal violet,ATCC 10231,MIC,,biofilm inhibition,75.29 ± 0.53%
C=C(C)[C@@H]1CC[C@]2(CNCCCN3CCCC3)CC[C@]3(C)[C@H](CC[C@@H]4[C@@]5(C)CC[C@H](OC(=O)CC(C)(C)C(=O)O)C(C)(C)[C@@H]5CC[C@]43C)[C@@H]12,human immunodeficiency virus 1,western blot,"HEK293T transfected, subtype B NL4-3, virion lysates",100 nM,reference: total CA,CA-SP1 accumulation,70 to 75%
Cc1cc(Cl)ccc1OCCCC(=O)NO,Lucilia cuprina,pupation,"LS strain, larvae on impregnated cotton wool",216 h,,IC50,> 1000 µg
Nc1ncnc2c1c(Br)cn2[C@@H]1O[C@H](CO)C[C@H]1O,Trypanosoma vivax,"parasite growth, resazurin",,24 h,,EC50,18 nM
